Published values gathered from unrelated publications.
Compare with care: the assays were run in different laboratories. Several values in a cell are separate wells, animals, samples, runs or records.
B1: ilvA regulatory domain 336-422 (Staphylococcus aureus, UniProt Q2FF63); sequence looked up; chain EMKHYFILNFPQRPGALREFVNDVLGPQDDITKFEYLKKSSQNTGTVIIGIQLKDHDDLIQLKQRVNHFDPSNIYINENKMLYSLLI
B2: tad1 (Metaclostridioides mangenotii, UniProt P0DW61); chain MEIKNGLCTQKYTKVYAEDKEKWKFNAPHHFIVGKADCEDEYIEPIEYVNFQEGPIKEYGINGVNNEDLILMVITRLQAFQDSPYKCRENAMAITKLQECLMWLGKRTLDREVKGIEGTSEI
B3: BvgA full length, non-phosphorylated C93A/C103A/S96C/T194C (Bordetella pertussis, UniProt P0A4H2); sequence looked up; chain MYNKVLIIDDHPVLRFAVRVLMEKEGFEVIGETDNGIDGLKIAREKIPNLVVLDIGIPKLDGLEVIARLQSLGLPLRVLVLTGQPPSLFARRALNCGAAGFVAKHENLHEVINAAKAVMAGYTYFPSTTLSEMRMGDNAKSDSTLISVLSNRELTVLQLLAQGMSNKDIADSMFLSNKTVSTYKTRLLQKLNACSLVELIDLAKRNNLA
B4: Rep68 C151S (adeno-associated virus 2, UniProt P03132); chain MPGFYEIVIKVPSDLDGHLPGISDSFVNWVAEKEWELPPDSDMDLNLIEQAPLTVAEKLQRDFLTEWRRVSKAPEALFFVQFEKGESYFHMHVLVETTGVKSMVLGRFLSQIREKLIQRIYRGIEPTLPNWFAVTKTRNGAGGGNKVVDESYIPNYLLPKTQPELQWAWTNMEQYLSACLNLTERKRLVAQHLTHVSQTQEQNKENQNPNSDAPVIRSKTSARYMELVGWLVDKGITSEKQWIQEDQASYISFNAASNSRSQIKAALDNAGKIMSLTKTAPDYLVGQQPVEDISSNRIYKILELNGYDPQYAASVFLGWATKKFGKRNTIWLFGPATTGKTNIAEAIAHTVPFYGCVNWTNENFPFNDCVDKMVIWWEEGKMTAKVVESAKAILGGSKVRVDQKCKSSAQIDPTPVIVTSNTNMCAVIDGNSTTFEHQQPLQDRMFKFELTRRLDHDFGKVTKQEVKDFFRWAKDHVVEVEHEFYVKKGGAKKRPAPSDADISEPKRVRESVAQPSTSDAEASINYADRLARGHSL
B5: sduA (Bacillus cereus, UniProt B7HFR2); chain MSDKINVWTTSRDSAVCGDIELKKTSTTRLIFRPEIVNNNKNPKASVRGCFIFQKKGRNALWDDYKELDMNKLKAEEWIKLEINSDAMLTLTKEIQKHYAVHEKYGVRYGAFHLFKDNPDIEKLIEMFESNTDLLTQLMEDDKSEALEKTLEWIVTNDNPDKIIDRLKNLKEQDLDQLNTLIGIANLKKVLSVWESNKLTNTSEKFWQSVLKENTWILSQIFSNPTVLINDEAYVGGKTVKNDSGKLVDFLYANPFSKDAVLIEIKTPSTPLITPTEYRTGVYSAHKDLTGAVTQVLTYKTTLQREYQNIDYNNYRQGIKTDFDIITPCCVVIAGMFDTLTDTAHRHSFELYRKELKNVTVITFDELFERVKGLIKLLEG
B6: panD E97A (Mycobacterium abscessus, UniProt B1MGV7); chain MMFRTMMKSKIHRATVTHADLHYVGSVTIDPDLMEAADLLEGEQVTIVDIDNGARLETYAITGTRGSGVIGINGAAAHLVHPGDLVIIIAYGVMTDEAARAFTPRVVFVDSDNKQVELGEHSDDPAYVPENFGLVSPRGLV
B7: codY (Clostridioides difficile, UniProt Q18BE1); sequence looked up; chain MASEVLQKTRKINKTLQTSGGSSVSFDLLAGALGDVLSSNVYVVSAKGKVLGLHLNDVQDSSVIEDEYTKQKKFSDEYTQNVLKIDETLENLNGEKILEIFPEEHGRLQKYTTVVPILGSGQRLGTLVLSRYSNSFNDDDLVIAEYSATVVGLEILRAIGEELEEEMRKKAVVQMAIGTLSYSELEAVEHIFAELDGKEGLLVASKIADRVGITRSVIVNALRKFESAGVIESRSLGMKGTHIRILNDKLTDELKKLKNNQ
B8: panD (Mycobacterium abscessus, UniProt B1MGV7); chain MMFRTMMKSKIHRATVTHADLHYVGSVTIDPDLMEAADLLEGEQVTIVDIDNGARLETYAITGTRGSGVIGINGAAAHLVHPGDLVIIIAYGVMTDEEARAFTPRVVFVDSDNKQVELGEHSDDPAYVPENFGLVSPRGLV
B9: sduA 171-380 E264A (Bacillus cereus, UniProt B7HFR2); chain KEQDLDQLNTLIGIANLKKVLSVWESNKLTNTSEKFWQSVLKENTWILSQIFSNPTVLINDEAYVGGKTVKNDSGKLVDFLYANPFSKDAVLIAIKTPSTPLITPTEYRTGVYSAHKDLTGAVTQVLTYKTTLQREYQNIDYNNYRQGIKTDFDIITPCCVVIAGMFDTLTDTAHRHSFELYRKELKNVTVITFDELFERVKGLIKLLEG
B10: panD R99A (Mycobacterium abscessus, UniProt B1MGV7); chain MMFRTMMKSKIHRATVTHADLHYVGSVTIDPDLMEAADLLEGEQVTIVDIDNGARLETYAITGTRGSGVIGINGAAAHLVHPGDLVIIIAYGVMTDEEAAAFTPRVVFVDSDNKQVELGEHSDDPAYVPENFGLVSPRGLV
B11: pyrE (Burkholderia cenocepacia, UniProt B4E589); sequence looked up; chain MTGYDRQSISDTTAKILLEVQAVHFNAEKPFIFTSGWASPVYIDCRKLISYPRVRRALMEMAETTITRDIGFEQIDAVAGGETAGIPFAAWIADRMMVPMQYVRKKPKGFGRNAQIEGHLEEGSRVLLVEDLTTDSRSKINFVNALRTAGATVNHCFVLFHYNIFKESVSVLKDIDVDLHALATWWDVLRVAKASGYFETKTLDEVEKFLHAPAEWSAAHGGATAPKE
B12: Csm2 1-140 (Enterococcus italicus, UniProt E6LHV6); chain MELAKTKTGEMIDLNFARKVVEENKRVKDNRGRQEIVLFNGLTTSKLRNLLELINHVYTKVYNSDDTTLSEDVRDELEYLKVKFAYESGREPAVRTFIEKTYVDKLVDVVLKKNTKKIFLDYCKYFEALVAYAKFYRMGD
B13: PALB2 1-195 I195W (Homo sapiens, UniProt Q86YC2); chain MDEPPGKPLSCEEKEKLKEKLAFLKREYSKTLARLQRAQRAEKIKHSIKKTVEEQDCLSQQDLSPQLKHSEPKNKICVYDKLHIKTHLDEETGEKTSITLDVGPESFNPGDGPGGLPIQRTDDTQEHFPHRVSDPSGEQKQKLPSRRKKQQKRTFISQERDCVFGTDSLRLSGKRLKEQEEISSKNPARSPVTEW
B14: P116 ectodomain 30-957 (Mycoplasma pneumoniae, UniProt P75556); sequence looked up; chain NKTHQVEHESEQSDFQDIRFGLNSVKLPKAQPAAATRITVENGTDKLVNYKSSPQQLFLAKNALKDKLQGEFDKFLSDAKAFPALTADLQEWVDQQLFNPNQSFFDLSAPRSNFTLSSDKKASLDFIFRFTNFTESVQLLKLPEGVSVVVDSKQSFDYYVNASAQKLLVLPLSLPDYTLGLNYMFDHITLNGKVVNKFSFNPFKTNLNLAFSNVYNGVDVFEAQKNLVGKGKYLNTHVKAEDVKKDVNANIKNQFDIAKIIAELMGKALKEFGNQQEGQPLSFLKVMDKVKEDFEKLFNLVRPGLGKFVKDLIQSSSQAENKITVYKLIFDNKKTILNLLKELSIPELNSSLGLVDVLFDGITDSDGLYERLQSFKDLIVPAVKTNEKTAALSPLIEELLTQKDTYVFDLIQKHKGILTNLLKNFLADFQKSTPFMADQVAIFTELFDNEGAFDLFGEADFVDKIAELFLTKRTVKNGEKIETKDSLLVTSLKSLLGEKVAALGDLLDSYIFKNELLNRSVEVAKAEAKDTKGATDYKKEQAKALKKLFKHIGENTLSKTNLDKITLKEVKNTENVELEETETTLKVKKLDVEYKVELGNFEIKNGLIKAMLEFLPDTKDLETTLDKLLFKGESYKAMKDKYIKEGFPGYGWAKGVVPGAFESIENTFKSAIDKTKSIRDLFGDMLFGNDLSSVKETDSFITLGGSFDIKYGGENLNVLPAYYSLINSEIGYQIIGVDTTIDATKVKVELKNKEYKGKSPAINGQVKLSQSFFNVWTNMFDSITKQIFQKKYEFKDNIQVFARNEDNTSRLELDISDPEQRVIPFAFVDGFGIQLKAVDKNITKEAGNTEPKSPVIQLYEALNKEKDQKQQSKQSPKQLDTKTQLGYLLKLGDNWSKDDYKSLIDDTIINNNYLEASFNSKITVDRLG
B15: pomB 1-315 (Vibrio alginolyticus, UniProt O06874); chain MDDEDNKCDCPPPGLPLWMGTFADLMSLLMCFFVLLLSFSEMDVLKFKQIAGSMKFAFGVQNQLEVKDIPKGTSIIAQEFRPGRPEPTPIDVIMQQTMDITQQTLEFHEGESDRAGGTKRDEGKLTGGQSPATSTQNNESAEADMQQQQSKEMSQEMETLMESIKKALEREIEQGAIEVENLGQQIVIRMREKGAFPEGSAFLQPKFRPLVRQIAELVKDVPGIVRVSGHTDNRPLDSELYRSNWDLSSQRAVSVAQEMEKVRGFSHQRLRVRGMADTEPLLPNDSDDNRALNRRVEISIMQGEPLYSEEVPVIQ
B16: lacI 1-360 N125C/D149C (Escherichia coli, UniProt P03023); chain MKPVTLYDVAEYAGVSYQTVSRVVNQASHVSAKTREKVEAAMAELNYIPNRVAQQLAGKQSLLIGVATSSLALHAPSQIVAAIKSRADQLGASVVVSMVERSGVEACKAAVHNLLAQRVSGLIICYPLDDQDAIAVEAACTNVPALFLCVSDQTPINSIIFSHEDGTRLGVEHLVALGHQQIALLAGPLSSVSARLRLAGWHKYLTRNQIQPIAEREGDWSAMSGFQQTMQMLNEGIVPTAMLVANDQMALGAMRAITESGLRVGADISVVGYDDTEDSSCYIPPLTTIKQDFRLLGQTSVDRLLQLSQGQAVKGNQLLPVSLVKRKTTLAPNTQTASPRALADSLMQLARQVSRLESGQ
B17: mpr (Mycobacterium smegmatis, UniProt Q50442); chain MTTPQPYPGMPSQPAPQGVPYPPQQPAKKKRKWPAIVGGVIALMIVGSIFNDDKKDTTPAENTATVAQAPAAAPTKEVPETTATINTPVRDGKFEFVVRSVEPGLSEVGDNPFLNQKAQGQFVIVTLSVQNIGDRPQGFSPSNQKLFDTEGRSFETDTSAQIALDNNDIAVWDNINPGNTVDVSLVYDMPVDAVPASIELHDSMFSGGVTVNLTP
B18: FII (bacteriophage lambda, UniProt P03714); sequence looked up; chain MADFDNLFDAAIARADETIRGYMGTSATITSGEQSGAVIRGVFDDPENISYAGQGVRVEGSSPSLFVRTDEVRQLRRGDTLTIGEENFWVDRVSPDDGGSCHLWLGRGVPPAVNRRR
Chain of UniProt A0QVQ5 (whole entry, looked up): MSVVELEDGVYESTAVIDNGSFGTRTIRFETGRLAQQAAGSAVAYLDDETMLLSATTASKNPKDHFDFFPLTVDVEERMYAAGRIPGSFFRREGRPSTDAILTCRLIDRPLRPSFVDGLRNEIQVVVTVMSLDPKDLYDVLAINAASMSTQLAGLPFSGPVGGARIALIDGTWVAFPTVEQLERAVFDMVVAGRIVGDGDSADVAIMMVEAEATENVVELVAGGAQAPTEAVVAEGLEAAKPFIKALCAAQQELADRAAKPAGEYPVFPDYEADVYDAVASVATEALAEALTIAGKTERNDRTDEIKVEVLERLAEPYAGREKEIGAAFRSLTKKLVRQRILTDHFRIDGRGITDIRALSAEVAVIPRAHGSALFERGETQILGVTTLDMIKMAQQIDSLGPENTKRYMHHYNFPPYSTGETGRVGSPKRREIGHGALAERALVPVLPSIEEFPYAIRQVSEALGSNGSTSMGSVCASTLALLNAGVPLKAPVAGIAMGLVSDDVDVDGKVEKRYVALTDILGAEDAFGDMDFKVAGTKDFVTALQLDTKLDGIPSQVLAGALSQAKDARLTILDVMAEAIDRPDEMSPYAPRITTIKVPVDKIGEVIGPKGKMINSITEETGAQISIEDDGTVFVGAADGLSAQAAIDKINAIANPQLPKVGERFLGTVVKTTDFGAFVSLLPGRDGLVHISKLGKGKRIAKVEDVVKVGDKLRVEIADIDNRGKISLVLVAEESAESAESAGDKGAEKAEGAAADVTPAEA

B1 (ilvA regulatory domain 336-422)  subunits per oligomer (itself; SEC): 4
B2 (tad1)  subunits per oligomer (itself; X-ray crystallography): 6
B3  subunits per oligomer (itself; cross-linking): 2
insulin human  fold change (refers to: ADCY1 mRNA; EcoHIV-infected mouse, brain; i.p., dose not given; reference: PBS): 0.975
B4 (Rep68 C151S)  subunits per oligomer (itself; cryo-EM): 5 and 6
B5 (sduA)  subunits per oligomer (itself; SEC-MALS): 4
pnp (Mycobacterium smegmatis, UniProt A0QVQ5)  subunits per oligomer (itself; cryo-EM structure): 3
B6 (panD E97A)  subunits per oligomer (itself; native gel): 4
B7 (codY)  subunits per oligomer (itself; SEC): 2
B8 (panD)  subunits per oligomer (itself; native gel): 4
B9 (sduA 171-380 E264A)  subunits per oligomer (itself; SEC-MALS): 8
B10 (panD R99A)  subunits per oligomer (itself; native gel): 4
B11 (pyrE)  subunits per oligomer (itself; crystal structure): 6
B12 (Csm2 1-140)  subunits per oligomer (itself; cryo-EM): 3 and 2
B13 (PALB2 1-195 I195W)  subunits per oligomer (itself; SEC-MALS): 2
B14 (P116 ectodomain 30-957)  subunits per oligomer (itself; 2D classification cryo-EM): 2
B15 (pomB 1-315)  subunits per oligomer (itself; cryo-EM structure): 2
B16 (lacI 1-360 N125C/D149C)  subunits per oligomer (itself; SEC): 4
B17 (mpr)  subunits per oligomer (itself; SEC): 20
B18 (FII)  subunits per oligomer (itself; cryo-EM): 6

Some of these lines once more:
B16 (lacI 1-360 N125C/D149C)  subunits per oligomer (itself; SEC): 4
B14 (P116 ectodomain 30-957)  subunits per oligomer (itself; 2D classification cryo-EM): 2
B9 (sduA 171-380 E264A)  subunits per oligomer (itself; SEC-MALS): 8
